Published values of several laboratories.
Numbered parts are unrelated; each lists some results of a single study.

Block 1
Target: Histone acetyltransferase KAT6A, both winged helices, GST fusion (KAT6A, Homo sapiens, UniProt Q92794, residues 1-181)
Technique: protein binding microarray
Form: double-stranded DNA, one strand shown
Medium: in vitro
Tested at: not given
Setting: 8-mer, flanks averaged, mean of 2 arrays, mostly near background
Relative to: not given
Reading: higher = stronger binding
Quantity: E-score
Target sequence (chain): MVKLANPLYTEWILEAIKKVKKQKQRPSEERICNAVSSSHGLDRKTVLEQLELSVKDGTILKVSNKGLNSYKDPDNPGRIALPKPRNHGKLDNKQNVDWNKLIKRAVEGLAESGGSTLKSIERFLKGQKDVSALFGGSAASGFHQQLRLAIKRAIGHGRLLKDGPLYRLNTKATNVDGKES
ACGTGCAC: 0.0285
GGGAAACC: 0.0889
AAATGGCA: -0.214
AACCGCAA: 0.138
AGTTAGTC: -0.036
AACCCACG: -0.148
AAGCACCT: -0.285

Block 2
Target: Interferon regulatory factor 7, full length, phosphomimetic (IRF7, Homo sapiens, UniProt Q92985, residues 1-503, S471D/S472D/S475D/S476D/S477D/S483D/S484D/S487D)
Technique: protein-binding microarray
Form: double-stranded DNA, one strand shown
Medium: in vitro
Tested at: 2200 nM top
Setting: 60-bp whole probe
Together with: salmon DNA 0.4 mg/ml
Relative to: random background probes
Reading: higher = stronger binding
Quantity: fitted relative affinity
Shared flanks, not repeated: GCCTAGCAC … GTCTTGATTCGCTTGACGCTGCTG
Target sequence (chain): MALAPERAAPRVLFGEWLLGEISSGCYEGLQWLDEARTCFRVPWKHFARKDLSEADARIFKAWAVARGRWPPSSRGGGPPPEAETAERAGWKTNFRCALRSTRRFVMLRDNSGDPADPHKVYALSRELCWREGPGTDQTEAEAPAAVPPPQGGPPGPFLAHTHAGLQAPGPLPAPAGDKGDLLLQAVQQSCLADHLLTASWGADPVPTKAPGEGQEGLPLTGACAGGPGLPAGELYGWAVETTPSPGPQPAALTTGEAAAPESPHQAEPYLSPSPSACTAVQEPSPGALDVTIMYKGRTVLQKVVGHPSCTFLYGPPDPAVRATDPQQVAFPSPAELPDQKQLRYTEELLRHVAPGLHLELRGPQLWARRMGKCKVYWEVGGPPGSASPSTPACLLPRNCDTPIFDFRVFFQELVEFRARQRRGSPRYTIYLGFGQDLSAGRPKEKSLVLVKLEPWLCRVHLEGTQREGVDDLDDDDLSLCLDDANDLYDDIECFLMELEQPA
GACGGGCTCCTTATCCTGACGTGCTAG: 0.0132 z-score
TTAGATCTCAGACTGGATTAGTGCTAG: -0.156 z-score
GACGGTTTAGGGTTTCGGGACGTGCTA: 1.95 z-score
TTAGGACTGGGTTTCGGTTAGTGCTAG: 3.9 z-score
TATTGTTTCCTTCCTCTTTTGTGCTAG: 3.85 z-score
TCATATTTGTCCCTATTACTGTGCTAG: 2.4 z-score
GACGGATTGGACTTTCGGGACGTGCTA: 2.51 z-score

Block 3
Target: RNA binding protein fox-1 homolog 2, RRM domain, GST-SBP tag (RBFOX2, Homo sapiens, UniProt O43251-10, residues 100-194)
Technique: RNA Bind-n-Seq
Form: RNA
Medium: in vitro
Tested at: 365 nM
Setting: natural RNA segment, single round, ends assumed
Relative to: no-protein control
Reading: higher = stronger binding
Quantity: RBNS enrichment (R)
Shared flanks, not repeated: GGGAGUUCUACAGUCCGACGAUC … UGGAAUUCUCGGGUGCCAA
Target sequence (chain): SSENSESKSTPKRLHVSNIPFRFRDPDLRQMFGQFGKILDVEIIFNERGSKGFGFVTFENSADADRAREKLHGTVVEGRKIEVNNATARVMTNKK
AACUGUUAUUAGUAUAGAAGUGGCUUAAAGAAAAGCAUCUUCAAAUACUUGACUUAGCAUAUCUUUCUUCUUUAGACUUACAUAAUGAUAUUCAUCUCUCCAUUAGCAAU: 0.49
GAAGGGAGUCGGGAGGGAAGGAAGGGGUAGGCUCGCCCUGCUUUAUCCAUGCUAGAACCAUGGUAUCCCAUGGGAAGCAGACAGCAGGCAAGGAGAGGCGUGGACACCGG: 0.457
ACUUUGACCCUCAGACUGGCAAAUACUACGAGUUGGUCUAGCUCCUUCAUCGUAACAGCAGCGUGAAGUCCACAAUGGGCACCGUGACUGGGUGUUGGGCAUGGGGGCCC: 0.545
AAGAAAUGUCAUUUUUUUCAUCAAAGACACCAGGGCAGAUUUUUAAGUAAAGAAAGACAAUUGGACCCUUAAGAAUUUAUGCAUUUGUAAAGUUGCUGUUGAUCCAAAUA: 0.885
CAUACAAGGCCCAGGAGGCUUAGUCCAGUCUGUGCUCCUGGGCUACAAGGACCCAGCCUGAGAUGGUCCCAUCUGCAGGGCCCCGCACCAGUUGGAGCAGAUGCCUCCCC: 0.322
CCUCCUUGCCCAGGCCUCUCUCACUCUUCAUACUCCUCCAGAUUUUGUUCUCAGCAUUUUCCUUUCUCUGUGAUCAUUGGCAUCCUGGGCGUUUCUUGCCCUCUGCUGAC: 1.12

Further values, each from its own experiment
PhoQ, residues 284 288 289 292 302 303 SIHLQL — fold induction (PhoP, residues 12 14 15 18 19 NIMAP (Escherichia coli, UniProt P23836); Sort-seq, item: YFP reporter; E. coli; PhoQ-PhoP variant library, together with: 10 µM Mg2+; relative to: high Mg2+ state, higher = stronger signaling): 0.798
